Measured values gathered from unrelated publications.
Compare with care: the assays were run in different laboratories. Values joined by “and” are separate records of one study, mostly repeats; a detail may differ. Numbers after ± are the reported error.
ALB: Albumin (ALB, Bos taurus, UniProt P02769)

`COc1cc(N2CCN(C(=O)C3CCCN3)CC2)ccc1Nc1ncc(Cl)c(Nc2ccccc2P(C)(C)=O)n1` (centres unmarked): protein level “decreased” (ALK tyrosine kinase receptor/Echinoderm microtubule-associated protein-like 4 (Homo sapiens, UniProt Q9HC35+Q9UM73); refers to: ALK tyrosine kinase receptor/Echinoderm microtubule-associated protein-like 4; nude mice, H3122 xenograft, tumour; oral, 25 mg/kg, 48 h).
`[11CH3]Nc1ccc(-c2nc3ccc(O)cc3o2)cn1`: “distribution volume ratio” 0.94 ± 0.11 (APP (Homo sapiens, UniProt P05067); binding, PET, reference Logan; control subjects, prefrontal cortex; baseline: cerebellum).
`O=C(NCC1CO1)Oc1ccc([N+](=O)[O-])cc1` (racemic) has a specific activity of < 2 nmol/min/mg (Epoxide hydrolase 1 (EPHX1, Homo sapiens, UniProt P07099); enzyme activity, substrate; 50 µM, pH 9.0, 37 °C, human enzyme).
`NS(=O)(=O)c1ccc(N2N=C(C(F)(F)F)C(O)C2c2ccc(F)cc2F)cc1` (centres unmarked) gave an IC80 of > 100 µM (Cyclooxygenase-2 (Canis lupus familiaris, UniProt Q8SPQ9); PGE2 formation, inhibitor; dog whole blood; 24 h, added: LPS).
`COC(=O)c1cnc(-c2cnccn2)cc1C(=O)OC.COC(=O)c1cnc(-c2cnccn2)cc1C(=O)OC.[Cl-].[Cl-].[Cl-].[Cl-].[Cu+2].[Cu+2]` has a Stern-Volmer constant of 874000 ± 13000 M⁻¹ (ALB; fluorescence quenching; pH 7.4, BSA 5 µM).
For `C[C@H](CCC(=O)NCC(=O)O)[C@H]1CC[C@H]2[C@@H]3C(=O)C[C@H]4C[C@H](O)CC[C@]4(C)[C@H]3CC[C@]12C`, the normalized Jmax was 1.57 (SLC10A1 (Homo sapiens, UniProt Q14973); uptake, substrate; HEK293 expressing SLC10A1; baseline: taurocholate Jmax).
Under enzyme activity, `CCCCCCCCCCCCCCCC(=O)NC[C@H](NC(=O)CNC(=O)CCNc1ccc([N+](=O)[O-])c2nonc12)C(=O)N[C@H](C(=O)N[C@@H](CCCCN)C(=O)N[C@H](C(=O)N[C@@H](CCCCN)C(=O)N[C@@H](CCCCN)C(=O)O)[C@@H](C)CC)C(C)C` is recorded as “no effect” (Palmitoyl-protein thioesterase 1 (Homo sapiens, UniProt P50897); chaperone; normal lymphoblasts; 10 to 20 µM, up to 96 h).
Under enzyme activity, `Cc1ccc(-c2csc(CS(=O)(=O)C(C)(C)C)n2)cc1` is recorded as “inactive” (Trypanothione synthetase (Trypanosoma brucei, UniProt Q586P2); inhibitor; concentration not given).
`Cc1cccc(Cn2ncc3c4cc(F)c(CN(C)C)cc4n(C)c3c2=O)n1` — result for “stoichiometry per monomer”: 0.336 ± 0.006 (Pyruvate kinase PKM (PKM, Homo sapiens, UniProt P14618); ITC; pH 7.5, 25 °C).
`CCCCCCCCCCCC(=O)Nc1ccccc1SSc1ccccc1NC(=O)CCCCCCCCCCC`: “Gibbs free energy change” -4.62 kcal/mol (ALB; binding, fluorescence quenching; 313 K).
`Cc1cccnc1C(=O)Nc1ccc(N2C(=O)c3ccc(Cl)cc3C2=O)c(Cl)c1` has an Emax of 92% (GRM1 (Homo sapiens, UniProt Q13255); calcium signal, positive allosteric modulator; T-REx-293).
`CC(C)CN(CC(=O)N1CCN(CC(OCc2ccc3ccccc3c2)c2ccc(Cl)cc2Cl)CC1)CC(C)C` (centres unmarked): “activity vs control” 196% (ULK1 (Homo sapiens, UniProt O75385); enzyme activity, inhibitor, ADP detection; 0.1 µM).
Under “inhibition rate constant”, `Cc1ccccc1-c1cc(N2CCN(C(=O)[C@@H](N)CCCNC(=N)N)CC2)ccc1N(C)C(=O)C(C)(C)c1cc(C(F)(F)F)cc(C(F)(F)F)c1` is recorded as 0.21 ± 0.01 min⁻¹ (TACR1 (Homo sapiens, UniProt P25103); antagonist, BRET; HEK293T; 10 µM, added: substance P, added 5 min before).
For `CCCS(=O)(=O)N1CCN(Cc2ccc(NC(=O)c3ccc(-c4cc(NC(=O)C5CC5)ccc4OC(F)(F)F)cc3)cc2)CC1`, “average molecular weight” read 40 ± 5 kDa (Genome polyprotein, NS5A domain 1 (Hepatitis C virus genotype 1b, UniProt Q9WMX2); SEC-MALLS, refers to: NS5A 33-202; concentration not given).
For `CC(C)[C@H](NC(=O)[C@@H]1CCC(=O)NCCC(=O)NCCCC[C@H](NC(=O)[C@H](CCCCN)NC(=O)[C@H](Cc2ccc(O)cc2)NC(=O)[C@H](CC(N)=O)NC(=O)[C@H](CCCCN)NC(=O)[C@@H](N)CSSC[C@H](NC(=O)[C@H](CCCNC(=N)N)NC(=O)[C@H](CCCNC(=N)N)NC(=O)[C@H](CCCNC(=N)N)NC(=O)[C@H](CCCNC(=N)N)NC(=O)[C@H](CCCNC(=N)N)NC(=O)[C@H](CCCNC(=N)N)NC(=O)[C@@H](N)CCCNC(=N)N)C(=O)O)C(=O)N[C@@H]([C@@H](C)O)C(=O)N1)C(=O)O`, the kon was 6000 M⁻¹ s⁻¹ (Disks large homolog 4, PDZ3 domain (Homo sapiens, UniProt P78352); binding, surface plasmon resonance; pH 7.5, 25 °C).
`CCc1cc(C)n2nc(-c3ccc(OCC[18F])cc3)c(CC(=O)N(CC)CC)c2n1` — result for “k3 rate constant”: 0.178 ± 0.029 min⁻¹ (Tspo (Rattus norvegicus, UniProt P16257); two-tissue compartment model; rat C6 glioma model, brain; 60 min dynamic PET).
`C[n+]1cn([C@@H]2O[C@H](COP(=O)(O)OP(=O)([O-])OP(=O)(O)O)[C@@H](O)[C@H]2O)c2nc(N)nc(O)c21` has a hydrolysis of 43.9% and 44% (DCPS (Homo sapiens, UniProt Q96C86); substrate, HPLC; 0.04 mM, 60 min, 37 °C).
With `CC(=O)N[C@@H](CC(=O)O)C(=O)N[C@@H](CCC(=O)O)C(=O)N[C@H](C(=O)N[C@@H](CC(=O)O)C(=O)Nc1ccc2c(C)cc(=O)oc2c1)C(C)C` the Vmax was 218 ± 2.74 RFU/min (Caspase-8 (CASP8, Homo sapiens, UniProt Q14790); substrate cleavage, substrate, fluorogenic AMC release; enzyme 0.25 activity units/µL).
`CSCC[C@H](NC(=O)[C@H](CC(C)C)NC(=O)[C@H](CCCCN(C)C)NC(=O)[C@H](CCCCNC(C)=O)NC(=O)[C@H](Cc1c[nH]cn1)NC(=O)[C@H](CCCNC(=N)N)NC(=O)[C@H](CO)NC(=O)[C@@H](N)[C@@H](C)O)C(=O)N[C@@H](Cc1ccccc1)C(=O)N[C@@H](CCCCN)C(=O)O` gave a binding reduction of ~14 fold (human 53BP1 tandem Tudor domain Y1502A; tryptophan fluorescence; concentration not given; baseline: wild type over mutant).
`COc1cc(C(=O)NC2CCC(N3CCN(CC4CCC5(CCCC5)C4)CC3)CC2)c(F)cc1Nc1ncc2c(n1)N(C1CCCC1(F)F)CC(F)(F)C(=O)N2C` (centres unmarked) has an inhibition of 1.87% (PLK4 (Homo sapiens, UniProt O00444); cell-free assay, TR-FRET; 10 µM).
With `Nc1nnc(-c2ccccc2O)cc1N1CC2CCC(C1)N2c1ccnc(C#CCCN2CCCCCC2)c1` the Dmax was ~95% (SMARCA2 (Homo sapiens, UniProt P51531); degrader, immunofluorescence; SW1573; 20 h).
`CNc1ccccc1C(=O)O[C@H]1C[C@H](n2cnc3c(N)ncnc32)O[C@@H]1COP(=O)(O)OP(=O)(O)O`: “∆H of ligand binding” -10.7 ± 0.4 kcal/mol (Unconventional myosin-Va (Gallus gallus, UniProt Q02440, D297C/G292C/I296C/S293C/V295G); van't Hoff analysis; concentration not given, added: 2 mM Mg2+).
`COc1ccc(C(=O)c2c(C(=O)NCCCN(C)C)oc3ccc(Cl)cc3c2=O)cc1OC` has an EC50 ratio of ~5 fold (GHSR (Homo sapiens, UniProt Q92847, L149G); β-arrestin-2 recruitment, BRET; HEK293T; baseline: GHSR1a L149G over wild type).
`CC1(C)CCN(Cc2ccc(C(=O)NC[C@]3(O)CCCN(c4cc(NCc5ccccc5)ncn4)C3)c(O)c2)CC1` has a remaining activity of 80% (ABL1 (Homo sapiens, UniProt P00519); kinase activity, radiometric; 10 µM, added: 10 µM ATP).
`CC(C)(C)CCN1C[C@@H]2[C@@H](CNC(=O)c3cc(Cl)cc(Cl)c3)[C@@H]2C1.Cl` gave a half-activation voltage of -4.19 ± 0.46 mV (Voltage-dependent L-type calcium channel subunit alpha-1F (Homo sapiens, UniProt O60840); calcium current, whole-cell patch clamp; HEK-293T cells; 5 µM, holding potential -90 mV, added: β2 and α2δ subunits).
For `Nc1ncnc2c1ncn2[C@@H]1O[C@H](CO)[C@@H](O[C@H]2O[C@H](CO)[C@@H](OP(=O)(O)O)[C@H](OP(=O)(O)O)[C@H]2O)[C@H]1O`, the Hill coefficient was 1.7 ± 0.4 (Itpr1 (Rattus norvegicus, UniProt P29994, del318-332/R568Q); Ca2+ release, agonist; permeabilized DT40 cells).
For `O=C(O)CCC(NC(=O)NC(CCCCNC(=O)C(Cc1ccc2ccccc2c1)NC(=O)C1CCC(CNC(=S)Nc2ccc(CC(CN(CC(=O)O)C3CCCCC3N(CC(=O)O)CC(=O)O)N(CC(=O)O)CC(=O)O)cc2)CC1)C(=O)O)C(=O)O` (centres unmarked), the internalized fraction was 65.4 ± 5.7% (FOLH1 (Homo sapiens, UniProt Q04609); LNCaP; 30 nM, 45 min, 37 °C, 177Lu-labelled; baseline: total cell-bound).
The cap hydrolysis of `C[n+]1cn(C2OC(COP(=O)(O)OP(=O)([O-])OP(=O)(O)OCC3OC(n4cnc5c(=O)[nH]c(N)nc54)C(O)C3O)C(O)C2O)c2nc(NCc3ccccc3)[nH]c(=O)c21` (centres unmarked) is reported as 29.1% (NUDT16 (Homo sapiens, UniProt Q96DE0); decapping, substrate; capped RNA transcribed by SP6 polymerase; concentration not given, 30 min).
For `CCCC[C@H](NC(=O)[C@H](CCCCN)NC(=O)[C@H](CCCCN)NC(=O)[C@H](CCCNC(=N)N)NC(=O)[C@H](CCCNC(=N)N)NC(=O)[C@H](CC(N)=O)NC(C)=O)C(=O)N1CCC[C@H]1C(=O)N[C@@H](CCN1C(=O)c2ccc(N(C)C)cc2C1=O)C(=O)N[C@H](C(=O)N[C@@H](CCC(=O)O)C(=O)N[C@@H](CO)C(=O)N[C@@H](CC(=O)O)C(=O)N[C@H](C(=O)O)C(C)C)[C@@H](C)CC`, “relative fluorescence increase” read 8.6 (Disks large homolog 4, PDZ1-2 domains (Homo sapiens, UniProt P78352); PDZ domain binding, fluorescence emission intensity; PSD-95 PDZ1-2 tandem construct; 4-DMAP-Dab at position -5; baseline: probe without PDZ domain).
The residence time of `CCc1nc2cc3ccccc3cc2cc1C(=O)N1CCC[C@H]1C(=O)N[C@@H](C/C=C\C[C@H](NC(=O)[C@@H]1CCCN1C(=O)c1cc2cc3ccccc3cc2nc1CC)C(=O)N[C@@H](CCCCN)C(=O)NCCCN)C(=O)N[C@@H](CCCCN)C(=O)NCCCN` is reported as 1650 s ((CUG)4 RNA; SPR).
`COc1c(O)cc(-c2oc3cc(O)cc(O)c3c(=O)c2O[C@@H]2O[C@@H](C)[C@H](O)[C@@H](O)[C@H]2O)cc1O` — result for activity: “inactive” (alpha-glucosidase Saccharomyces cerevisiae; inhibitor; concentration not given).
`Cc1nc2c(cnn2C(C)C)cc1C(=O)NCc1ccc(C(C)O)c(C)n1` (centres unmarked) — result for “histone acetyltransferase activity”: “increased” (KAT5 (Homo sapiens, UniProt Q92993); activator; 20 µM).
The hyperchromism of `CC(=O)[O-].O.[Cu+2].[O-]c1ccc(Br)cc1C=NCCN1CCOCC1` is reported as 74.1% (ALB; UV absorption titration; concentration not given, pH 7.2, 25 °C).
The relative potency of `CCCCCC(C)(O)/C=C/C=C\C=C\C=C\[C@@H](O)[C@@H](O)CCCC(=O)OC` (mixture of isomers) is reported as > 1000 fold (FPR2 (Homo sapiens, UniProt P25090); HEK293 transfected; added: [3H]LXA4; baseline: 15-deoxy-LXA4).
`Oc1cc(Cl)c(O)c2ccccc12` — result for MBP phosphorylation: “decreased” (PAK1 (Homo sapiens, UniProt Q13153, T423E); inhibitor; 40 µM, 0.5 h).
